{"data": "Measurements gathered from unrelated publications", "note": "Parts stem from different laboratories: compare values within a part only."}
{"data": "Set 1", "target": "Replicase polyprotein 1ab, nsp13 helicase (rep, Severe acute respiratory syndrome coronavirus 2, UniProt P0DTD1)", "mode": "inhibitor", "tested at": "20 µM"}
{"SMILES": "CC(C)[C@@H]1C(=O)N(S(C)(=O)=O)[C@@H]2CCN(C(=O)/C=C/CN3CCCCC3)[C@H]21", "inhibition": "7.03%"}
{"SMILES": "O=C(O)P(=O)(O)O", "inhibition": "0.28%"}
{"SMILES": "C[C@H](N)C(=O)N[C@@]1(C(=O)O)C[C@@H](Sc2nnc[nH]2)[C@H]2[C@H](C(=O)O)[C@H]21", "inhibition": "6.48%"}
{"SMILES": "COc1cccc([C@@H](C)NCCCc2ccccc2Cl)c1", "inhibition": "3.33%"}
{"SMILES": "CC1(C)S[C@@H]2[C@H](N3C(=O)[C@@H](c4ccccc4)NC3(C)C)C(=O)N2[C@H]1C(=O)O", "inhibition": "13.3%"}
{"SMILES": "Cc1ncc(C[n+]2csc(CCO)c2C)c(N)n1", "inhibition": "-0.27%"}
{"SMILES": "Cc1nc(Nc2ccc(F)cc2)nc(N2CCc3ccccc3C2C)c1C (stereo not shown)", "inhibition": "8.39%"}
{"SMILES": "COc1cc2c(NC3CCN(C4CCCCC4)CC3)nc(N3CCCN(C(C)C)CC3)nc2cc1OCCCN1CCCCC1", "inhibition": "4.54%"}
{"SMILES": "CCCCCOc1c(OC)ccc2cc(C(=O)NCc3ccc4c(c3)OCO4)c(=O)[nH]c12", "inhibition": "7.61%"}
{"SMILES": "Cc1cc(C)c2c(c1)[C@@H](N(Cc1cc(C(F)(F)F)cc(C(F)(F)F)c1)c1nnn(C)n1)CCCN2C[C@H]1CC[C@H](C(=O)O)CC1", "inhibition": "7.98%"}
{"SMILES": "CCCOc1ccc2[nH]cc(C3=CCNCC3)c2n1", "inhibition": "5.63%"}
{"SMILES": "CC(C)(C)Cn1c(N)nc2ccc(-c3[nH]c(C(C)(C)C)nc3-c3ccc(F)cc3)nc21", "inhibition": "2.89%"}
{"SMILES": "CN(Cc1cc(Br)cc(Br)c1N)C1CCCCC1", "inhibition": "1.6%"}
{"SMILES": "CC(C(=O)O)c1ccc(C(=O)c2ccccc2)s1 (stereo not shown)", "inhibition": "5.42%"}
{"SMILES": "c1cnc(N2CCN(Cc3ccc4c(c3)OCO4)CC2)nc1", "inhibition": "0.47%"}
{"SMILES": "CC(C)(CO)c1cc2cc(NC(=O)C3(c4ccc5c(c4)OC(F)(F)O5)CC3)c(F)cc2n1C[C@@H](O)CO", "inhibition": "7.27%"}
{"data": "Set 2", "target": "Histone acetyltransferase KAT6A, winged helix 2, GST fusion (KAT6A, Homo sapiens, UniProt Q92794, residues 85-181)", "method": "protein binding microarray", "molecule type": "double-stranded DNA, one strand shown", "sample": "in vitro", "tested at": "not given", "setting": "8-mer, flanks averaged, mean of 2 arrays, mostly near background", "reference": "not given", "reading": "higher = stronger binding", "Target sequence (chain)": "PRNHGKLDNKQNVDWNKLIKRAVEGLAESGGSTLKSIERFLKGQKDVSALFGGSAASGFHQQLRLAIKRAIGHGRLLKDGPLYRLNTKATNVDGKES"}
{"Strand": "ATTCGGAG", "E-score": 0.135}
{"Strand": "CAATCGCA", "E-score": 0.132}
{"Strand": "CGTCCGGA", "E-score": -0.0653}
{"Strand": "GCAAATGA", "E-score": 0.0376}
{"Strand": "ATGCCTAA", "E-score": -0.00741}
{"Strand": "AGAAATCC", "E-score": 0.083}
{"Strand": "GTACGAAC", "E-score": 0.15}
{"Strand": "CCTCGTGA", "E-score": 0.0905}
{"data": "Set 3", "target": "ATP-dependent RNA helicase DDX3X, helicase core (DDX3X, Homo sapiens, UniProt O00571, residues 132-607)", "method": "RNA Bind-n-Seq", "molecule type": "RNA", "sample": "in vitro", "tested at": "90 pmol", "setting": "4-mer, random 30-nt RNA, single round", "with": "3 µM iPr-DMDA-PatA, 2 mM ADP, 2 mM phosphate", "reference": "input library", "reading": "higher = stronger binding", "sequence of UniProt O00571 (132-607, looked up)": "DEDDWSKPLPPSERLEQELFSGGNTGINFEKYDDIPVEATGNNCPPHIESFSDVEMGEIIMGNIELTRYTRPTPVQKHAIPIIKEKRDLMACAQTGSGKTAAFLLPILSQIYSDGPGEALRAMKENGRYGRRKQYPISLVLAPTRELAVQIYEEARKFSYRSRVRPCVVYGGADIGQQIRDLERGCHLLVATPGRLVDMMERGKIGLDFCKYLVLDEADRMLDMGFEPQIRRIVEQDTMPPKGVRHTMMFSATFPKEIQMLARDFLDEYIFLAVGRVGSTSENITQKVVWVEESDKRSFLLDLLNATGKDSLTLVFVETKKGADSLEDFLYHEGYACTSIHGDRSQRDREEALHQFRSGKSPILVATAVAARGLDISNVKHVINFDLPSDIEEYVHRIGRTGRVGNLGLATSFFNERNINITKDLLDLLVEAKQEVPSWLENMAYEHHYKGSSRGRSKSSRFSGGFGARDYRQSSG"}
{"Strand": "CCUG", "4-mer enrichment [fold]": 0.822}
{"Strand": "GCAC", "4-mer enrichment [fold]": 0.849}
{"Strand": "CUAC", "4-mer enrichment [fold]": 0.962}
{"Strand": "GACA", "4-mer enrichment [fold]": 1.1}
{"Strand": "AUAU", "4-mer enrichment [fold]": 1.26}
{"Strand": "UAUC", "4-mer enrichment [fold]": 1}
{"Strand": "GAUC", "4-mer enrichment [fold]": 0.996}
{"data": "Set 4", "target": "Replicase polyprotein 1ab, main protease (rep, Severe acute respiratory syndrome coronavirus 2, UniProt P0DTD1)", "observed": "enzyme activity", "mode": "inhibitor", "tested at": "20 µM", "setting": "hit confirmation, with DTT"}
{"SMILES": "O=C1C(Cl)=C(Cl)C(=O)C(Cl)=C1Cl", "inhibition [%]": 99.5}
{"SMILES": "O=C1NC(=O)C(c2ccccc2)N1 (stereo not shown)", "inhibition [%]": 92}
{"SMILES": "Oc1cc(CNC(=S)/C=C/c2cc(O)c(O)c(Br)c2)cc(O)c1O", "inhibition [%]": -4.6}
{"data": "Set 5", "cell line": "HEK-293T/ACE2", "tested at": "concentration not given", "time": "16 (unit not given)", "reference": "vehicle"}
{"SMILES": "COCC(=O)Nc1c(I)c(C(=O)NCC(O)CO)c(I)c(C(=O)N(C)CC(O)CO)c1I (stereo not shown)", "viability": "100%"}
{"SMILES": "C[C@]12C=CC(=O)N[C@@H]1CC[C@@H]1[C@@H]2CC[C@]2(C)[C@@H](C(=O)Nc3cc(C(F)(F)F)ccc3C(F)(F)F)CC[C@@H]12", "viability": "104%"}
{"SMILES": "NC(=O)OCC(COC(N)=O)c1ccccc1", "viability": "101%"}
{"note": "Excerpt of the above (set 5):"}
{"SMILES": "COCC(=O)Nc1c(I)c(C(=O)NCC(O)CO)c(I)c(C(=O)N(C)CC(O)CO)c1I (stereo not shown)", "viability": "100%"}
{"SMILES": "C[C@]12C=CC(=O)N[C@@H]1CC[C@@H]1[C@@H]2CC[C@]2(C)[C@@H](C(=O)Nc3cc(C(F)(F)F)ccc3C(F)(F)F)CC[C@@H]12", "viability": "104%"}
{"SMILES": "NC(=O)OCC(COC(N)=O)c1ccccc1", "viability": "101%"}
